Results collected from several papers.
Each line is one published result; not all experiments were run side by side.
TDP1: Tyrosyl-DNA phosphodiesterase 1 (TDP1, Homo sapiens, UniProt Q9NUW8)
Sequence of UniProt Q9NUW8 (whole entry, looked up): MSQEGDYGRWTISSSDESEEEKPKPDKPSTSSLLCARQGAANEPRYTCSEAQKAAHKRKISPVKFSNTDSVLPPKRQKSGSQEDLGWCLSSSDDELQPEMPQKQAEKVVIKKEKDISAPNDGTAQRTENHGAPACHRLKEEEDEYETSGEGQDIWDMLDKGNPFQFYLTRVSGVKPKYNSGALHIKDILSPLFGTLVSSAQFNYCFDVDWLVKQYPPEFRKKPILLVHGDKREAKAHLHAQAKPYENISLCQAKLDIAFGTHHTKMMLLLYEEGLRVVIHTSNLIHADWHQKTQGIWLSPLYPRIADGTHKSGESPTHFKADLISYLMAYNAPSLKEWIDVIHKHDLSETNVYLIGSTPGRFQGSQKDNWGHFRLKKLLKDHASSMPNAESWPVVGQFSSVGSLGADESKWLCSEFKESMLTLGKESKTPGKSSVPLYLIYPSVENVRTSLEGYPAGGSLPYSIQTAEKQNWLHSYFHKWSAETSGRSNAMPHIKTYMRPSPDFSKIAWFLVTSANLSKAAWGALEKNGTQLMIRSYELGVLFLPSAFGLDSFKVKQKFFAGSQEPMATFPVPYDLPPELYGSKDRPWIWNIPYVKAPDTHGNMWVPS
T1: dsDNA, duplex; chain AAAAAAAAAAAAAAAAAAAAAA; chain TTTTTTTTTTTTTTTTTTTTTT
T2: RNA, base-paired repeat; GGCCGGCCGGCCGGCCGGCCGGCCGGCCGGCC
T3: RNA, abasic bulge mismatch; chain CUAAUGGAAUG; chain CAUUUGGUUAG
T4: dsDNA; chain CTGCACTAGGCACTACCG; chain CGGTAGTGCCTAGTGCAG
T5: RNase P RNA (Methanobrevibacter smithii); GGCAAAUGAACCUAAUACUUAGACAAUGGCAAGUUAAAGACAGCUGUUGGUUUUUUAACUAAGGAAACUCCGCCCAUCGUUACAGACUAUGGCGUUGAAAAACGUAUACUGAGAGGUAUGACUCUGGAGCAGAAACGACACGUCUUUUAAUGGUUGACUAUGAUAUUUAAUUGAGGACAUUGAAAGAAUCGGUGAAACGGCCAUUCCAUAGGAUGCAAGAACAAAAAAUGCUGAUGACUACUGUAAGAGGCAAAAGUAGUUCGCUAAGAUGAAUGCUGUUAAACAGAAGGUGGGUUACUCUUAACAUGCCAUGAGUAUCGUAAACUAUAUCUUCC
T6: DNA junction; chain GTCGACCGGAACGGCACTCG; chain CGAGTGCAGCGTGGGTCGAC; chain CCACGCTCGTTCCG
T7: RNA, abasic bulge, CUG repeat hairpin; GACAGCUGCUGUC
T8: RNA; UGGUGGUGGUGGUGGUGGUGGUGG
T9: dsDNA, duplex; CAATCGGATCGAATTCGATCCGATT
T10: dsDNA, duplex; chain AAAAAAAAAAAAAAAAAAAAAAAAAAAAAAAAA; chain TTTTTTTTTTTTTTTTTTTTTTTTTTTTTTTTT
T11: ssDNA; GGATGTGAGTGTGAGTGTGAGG

| Compound | target | assay | test system | setting | measurement | result |
| --- | --- | --- | --- | --- | --- | --- |
| CCCc1n(Cc2ccc(Br)cc2)c2c([n+]1Cc1ccc(Br)cc1)CCCC2 | T1, dsDNA, duplex | competition with EtBr, competitor, EtBr displacement fluorescence | – | Na+ 50 mM, with: EtBr | binding | binds |
| O=C(CN1CCCN(C(=O)CN2CCCN(Cc3cccc4cnccc34)CC2)CC1)NCCOCCOCCNCCOCCOCCNC(=O)CN1CCCN(C(=O)CN2CCCN(Cc3cccc4cnccc34)CC2)CC1 | T2, RNA, base-paired repeat | BLI | – | – | binding | binds weakly |
| Cc1ccc2ccc(NC(=O)OCCCN(CCCOC(=O)Nc3ccc4ccc(C)nc4n3)Cc3ccc(/N=N/c4ccc(CN(CCCOC(=O)Nc5ccc6ccc(C)nc6n5)CCCOC(=O)Nc5ccc6ccc(C)nc6n5)cc4)cc3)nc2n1 | T3, RNA, abasic bulge mismatch | CD spectra | – | before irradiation | binding | no binding |
| N=C(N)NCCCCNc1nc(N)nc(NCCCCNC(=N)N)n1 | T4, dsDNA | ITC | – | – | binding | binds weakly |
| CN[C@H](C(=O)O)C(C)C | T5, RNase P RNA (Methanobrevibacter smithii) | WaterLOGSY NMR | – | – | binding | no binding |
| C(=NC(COCc1ccc2oc3ccc(COCC(N=Cc4ccccn4)c4ccccc4)cc3c2c1)c1ccccc1)c1ccccn1.C(=NC(COCc1ccc2oc3ccc(COCC(N=Cc4ccccn4)c4ccccc4)cc3c2c1)c1ccccc1)c1ccccn1.C(=NC(COCc1ccc2oc3ccc(COCC(N=Cc4ccccn4)c4ccccc4)cc3c2c1)c1ccccc1)c1ccccn1.[Fe+2].[Fe+2] (stereo not shown) | T6, DNA junction | AFM | – | – | binding | binds |
| N=C(N)Nc1ccc(OC(=O)c2ccc(NC(=N)N)cc2)cc1 | T7, RNA, abasic bulge, CUG repeat hairpin | NMR | – | 25 °C | binding | binds |
| O=C1Nc2ccc3ccc(nc3n2)CNCc2ccc3ccc(nc3n2)NC(=O)OCCCNCCCO1 | T8, RNA | SPR | – | – | binding | binds |
| CN(C)c1ccc(/C=C/C=C/c2cc(-c3ccc(N(C)C)cc3)[o+]c3ccccc23)cc1 | T9, dsDNA, duplex | fluorescence turn-on | – | – | binding | binds |
| CC(=O)c1cnc(N)nc1N1CC[C@H]1c1nn2ccc(Cl)c2c(=O)n1-c1ccccc1 | Phosphatidylinositol-4,5-bisphosphate 3-kinase, catalytic subunit gamma (Rattus norvegicus, UniProt D3ZFJ0) | KiNativ | rat whole blood cells | 0.001 µM, 1 h | binding | 10% |
| COc1cccc(Nc2cc(C)nc3ccc(C(=N)N)cc23)c1 | T7, RNA, abasic bulge, CUG repeat hairpin | NMR | – | 35 °C | binding | binds |
| CCCCCCCCn1c(CC)c(C)[n+](CCCCCCCC)c1CCC | T10, dsDNA, duplex | competition with EtBr, competitor, EtBr displacement fluorescence | – | Na+ 50 mM, with: EtBr | binding | binds |
| CC(=O)Oc1ccc2ccccc2c1C=NOCc1ccc2nc(-c3ccccc3)c(Nc3ccc(C(=O)O)cc3)n2c1 (mixture of isomers) | TDP1 | enzyme activity, inhibitor | – | 100 µM, unpurified compound | inhibition | 45.4% |
| CN(C)c1ccc(C2=C/C(=C/C=C/c3sc4ccccc4[n+]3C)c3ccccc3O2)cc1 | T11, ssDNA | fluorescence turn-on | – | – | binding | no binding |
| Cc1ccc2ccc(NC(=O)OCCCNCc3ccc(/N=N\c4ccc(CNCCCOC(=O)Nc5ccc6ccc(C)nc6n5)cc4)cc3)nc2n1 | T3, RNA, abasic bulge mismatch | thermal melting | – | – | binding | no binding |
| COc1ccc(Nc2nc(Cl)c(C=NOCc3ccc(-c4nc5cc(-c6ccccc6)ccn5c4Nc4ccc(C(=O)O)cc4)cc3)s2)cc1 | TDP1 | enzyme activity, inhibitor | – | 100 µM, unpurified compound | inhibition | 84.9% |

Repeated from above:
| Compound | target | assay | test system | setting | measurement | result |
| --- | --- | --- | --- | --- | --- | --- |
| COc1ccc(Nc2nc(Cl)c(C=NOCc3ccc(-c4nc5cc(-c6ccccc6)ccn5c4Nc4ccc(C(=O)O)cc4)cc3)s2)cc1 | TDP1 | enzyme activity, inhibitor | – | 100 µM, unpurified compound | inhibition | 84.9% |
